Published values of several laboratories.
“And” joins repeats or separate records; there may be more than shown. ± marks the error that the study gave. In brackets after ≈: the same amount, converted by molar mass.

SMILES | tested on | test | system | setting | scale | endpoint | result
CN(C)c1nc(NCc2ccc3ccccc3c2)c(/N=N/c2ccc(Cl)cc2)c(N(C)C)n1 | Ostrinia furnacalis | leaf dipping | – | 500 mg/L, 96 h | – | mortality | 100%
CC[C@H](C)[C@H](NC(=O)[C@H](CO)NC(=O)[C@H](Cc1ccc(O)cc1)NC(=O)[C@H](Cc1ccc(O)cc1)NC(=O)[C@H](CC(N)=O)NC(=O)CNC(=O)[C@H](CO)NC(=O)[C@H](Cc1ccc(O)cc1)NC(=O)[C@H](CO)NC(=O)[C@H](CO)NC(=O)[C@H](CC(N)=O)NC(=O)COCCOCCNC(=O)CN1CCN(CC(=O)O)CCN(CC(=O)O)CCN(CC(=O)O)CC1)C(=O)N[C@@H](CC(C)C)C(N)=O [copper-64 labelled] | – | dynamic PET | tamoxifen-induced PDAC mouse model, pancreas | 1.9 min, CLDN4-expressing tumours | – | maximum pancreas uptake | 24.2 %IA/cc
Cc1cc(C(=O)Nc2nc3cccc(C)c3n2[C@H]2CCCCN(C(=O)/C=C/CN(C)C)C2)ccn1 | Trypanosoma brucei | – | CLK1 C215S overexpressing | 15 x EC50 | – | survival | 93.9% and 93.2% and 87.4%
O=[N+]([O-])c1ccc(C2=[N+]([O-])c3ccccc3N3CCCN=C23)cc1 | Clostridioides difficile | microbial growth | – | – | – | MIC90 | 0.5 µg/mL
CC(C)[C@H]1NC(=O)[C@H](Cc2ccc(O)cc2)NC(=O)[C@@H](C(C)C)NC(=O)[C@@H](C)NC(=O)[C@H](C)NC(=O)[C@@H](Cc2c(-c3ccc(-c4ccc5ccccc5c4)cc3)[nH]c3ccccc23)NC(=O)[C@@H](CO)NC1=O | Mycobacterium marinum | – | – | – | – | MIC90 | 100 µM
CC(C)C[C@H](NC(=O)[C@@H](N)CO)C(=O)N[C@@H](Cc1c[nH]c2ccccc12)C(=O)N[C@@H](CCC(=O)O)C(=O)N[C@@H](CC(N)=O)C(=O)N[C@@H](Cc1ccccc1)C(=O)N[C@@H](CCCCN)C(N)=O | Gram-negative bacteria | – | – | – | – | geometric mean MIC | 256 µM
CCC(C)CCC(=O)N[C@H](CCN)C(=O)N[C@@H](CCN)C(=O)N[C@@H](CCN)C(=O)N[C@@H](CC(C)C)C(=O)N[C@H](Cc1ccccc1)C(=O)N[C@@H](CCN)C(=O)N[C@@H](CCN)C(=O)N[C@@H](CC(C)C)C(N)=O (stereo partly shown) | Acinetobacter calcoaceticus | BHI agar spot plating | – | 24 h, 37 °C | – | MBC | 128 µM (≈ 128 µg/mL)
CC(C)(C)C(=O)OCOP(=O)(OCOC(=O)C(C)(C)C)C1CCCN(O)C1=O (stereo not shown) | SK-OV-3 | – | – | – | – | CC50 | > 100000 nM
Cc1cc(N2CCC(C#N)(C3(C)CC3)C2=O)cc(C(=O)NCc2cc(F)cc(-c3cnn(C)c3)c2)n1 (racemic) | Plasmodium falciparum | parasite growth, [3H]hypoxanthine incorporation | Dd2 Pfpi4k mutant | – | – | IC50 | 18 nM
COc1ccccc1-c1n[nH]c2nc(NC3CCN(C(=O)Cc4ccc(F)cc4F)CC3)ncc12 | – | bead binding, competition bead pull-down, refers to: LINJ.26.0600 | Leishmania donovani axenic amastigote extract | 10 µM | baseline: vehicle | relative abundance | 0.67
CC[C@H](C)[C@@H]1NC(=O)[C@H](CO)NC(=O)[C@H](CCCCN)NC(=O)[C@@H]2CSSC[C@@H](C(=O)N[C@@H](Cc3ccc(O)cc3)C(N)=O)NC(=O)[C@H](CCCCN)NC(=O)[C@@H]3CSSC[C@H](NC(=O)[C@H](CCCNC(=N)N)NC(=O)[C@H](CC(C)C)NC(=O)[C@H](CC(=O)O)NC(=O)[C@H](CC(=O)O)NC(=O)[C@H](CCC(=O)O)NC(=O)[C@H](CC(N)=O)NC(=O)[C@H](Cc4c[nH]c5ccccc45)NC(=O)C(C)(CC)NC(=O)CNC(=O)[C@H](CC(N)=O)NC(=O)[C@@H](NC(=O)CNC(=O)[C@H](Cc4ccccc4)NC(=O)CN)CSSC[C@H](NC(=O)[C@H](Cc4ccc(O)cc4)NC(=O)CNC(=O)CNC(=O)[C@H](CCCCN)NC(=O)[C@H](Cc4ccc(O)cc4)NC(=O)[C@H]4CCCN4C(=O)[C@@H]4CCCN4C1=O)C(=O)N[C@@H](C)C(=O)N[C@@H](CCCCN)C(=O)N1CCC[C@@H]1C(=O)NCC(=O)N[C@@H](Cc1ccccc1)C(=O)N[C@@H](C(C)C)C(=O)N3)C(=O)N[C@@H](Cc1c[nH]cn1)C(=O)N[C@@H](CC(N)=O)C(=O)N[C@@H](Cc1c[nH]cn1)C(=O)N2 (stereo partly shown) | Streptococcus pneumoniae | – | 19F | 24 h | – | MBC | 0.5 µM (≈ 2.23 µg/mL)
CN(C)c1cccc(-c2ccc3ncnc(Nc4ccc(OCc5cccc(F)c5)c(Cl)c4)c3c2)c1 | Trypanosoma cruzi | intracellular amastigote growth | NIH 3T3, Tulahuen, β-galactosidase-expressing | 10 µM, 96 h | – | inhibition | 58%
O=C1NC2(CC2)COc2ncc(F)cc2[C@H]2COCCN2c2ccn3ncc1c3n2 | – | – | Sprague-Dawley rat, male, thymus | oral, 10 mg/kg/day, 4 weeks, end of treatment | – | organ-to-brain weight ratio | 34.2 ± 5.11%
O=C(O)C(Cl)Cl.OCCN(CCO)CCO | Chenopodium album | herbicidal activity | – | 15 mg/mL, 21 days, post-emergence greenhouse | – | inhibition | -68%
CCOC(=O)C1(Cc2ccccc2F)Oc2cc(F)ccc2N(Cc2ccccc2F)C1=O (stereo not shown) | Setaria viridis | fresh weight, greenhouse postemergence | – | postemergence, 150 g ai/ha, 21 days | – | inhibition | 44.9 ± 2.02%
CS(C)(=O)=Nc1ccc(-c2ccc(-c3nc4cc(O[C@@H]5CO[C@H]6[C@@H]5OC[C@H]6O)[nH]c4cc3F)cc2)cc1 | ABL1 (Homo sapiens, UniProt P00519, Y253F) | enzyme activity, inhibitor | – | 10 µM | – | inhibition | -13%

For quick reference, copied from above:
SMILES | tested on | test | system | setting | scale | endpoint | result
CC(C)[C@H]1NC(=O)[C@H](Cc2ccc(O)cc2)NC(=O)[C@@H](C(C)C)NC(=O)[C@@H](C)NC(=O)[C@H](C)NC(=O)[C@@H](Cc2c(-c3ccc(-c4ccc5ccccc5c4)cc3)[nH]c3ccccc23)NC(=O)[C@@H](CO)NC1=O | Mycobacterium marinum | – | – | – | – | MIC90 | 100 µM
CC(C)C[C@H](NC(=O)[C@@H](N)CO)C(=O)N[C@@H](Cc1c[nH]c2ccccc12)C(=O)N[C@@H](CCC(=O)O)C(=O)N[C@@H](CC(N)=O)C(=O)N[C@@H](Cc1ccccc1)C(=O)N[C@@H](CCCCN)C(N)=O | Gram-negative bacteria | – | – | – | – | geometric mean MIC | 256 µM
